Measurements of several laboratories.
A part holds a random share of what one study measured.
UniProt P06239, sequence (whole entry, looked up): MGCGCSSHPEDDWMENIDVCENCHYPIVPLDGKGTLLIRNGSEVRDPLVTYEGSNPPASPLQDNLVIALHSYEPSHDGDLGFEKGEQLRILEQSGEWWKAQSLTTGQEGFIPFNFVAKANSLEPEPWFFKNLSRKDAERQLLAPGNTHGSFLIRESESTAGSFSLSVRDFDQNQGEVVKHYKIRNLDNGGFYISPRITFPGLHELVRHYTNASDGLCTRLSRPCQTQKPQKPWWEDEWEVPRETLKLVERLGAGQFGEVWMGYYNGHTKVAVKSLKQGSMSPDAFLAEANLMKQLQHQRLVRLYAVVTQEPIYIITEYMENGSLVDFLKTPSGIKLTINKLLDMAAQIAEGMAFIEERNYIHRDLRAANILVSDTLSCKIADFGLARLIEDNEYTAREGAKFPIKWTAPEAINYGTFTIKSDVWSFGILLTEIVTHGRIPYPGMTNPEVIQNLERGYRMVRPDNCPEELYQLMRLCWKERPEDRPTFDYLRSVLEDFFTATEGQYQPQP
UniProt Q8N4C8, sequence (whole entry, looked up): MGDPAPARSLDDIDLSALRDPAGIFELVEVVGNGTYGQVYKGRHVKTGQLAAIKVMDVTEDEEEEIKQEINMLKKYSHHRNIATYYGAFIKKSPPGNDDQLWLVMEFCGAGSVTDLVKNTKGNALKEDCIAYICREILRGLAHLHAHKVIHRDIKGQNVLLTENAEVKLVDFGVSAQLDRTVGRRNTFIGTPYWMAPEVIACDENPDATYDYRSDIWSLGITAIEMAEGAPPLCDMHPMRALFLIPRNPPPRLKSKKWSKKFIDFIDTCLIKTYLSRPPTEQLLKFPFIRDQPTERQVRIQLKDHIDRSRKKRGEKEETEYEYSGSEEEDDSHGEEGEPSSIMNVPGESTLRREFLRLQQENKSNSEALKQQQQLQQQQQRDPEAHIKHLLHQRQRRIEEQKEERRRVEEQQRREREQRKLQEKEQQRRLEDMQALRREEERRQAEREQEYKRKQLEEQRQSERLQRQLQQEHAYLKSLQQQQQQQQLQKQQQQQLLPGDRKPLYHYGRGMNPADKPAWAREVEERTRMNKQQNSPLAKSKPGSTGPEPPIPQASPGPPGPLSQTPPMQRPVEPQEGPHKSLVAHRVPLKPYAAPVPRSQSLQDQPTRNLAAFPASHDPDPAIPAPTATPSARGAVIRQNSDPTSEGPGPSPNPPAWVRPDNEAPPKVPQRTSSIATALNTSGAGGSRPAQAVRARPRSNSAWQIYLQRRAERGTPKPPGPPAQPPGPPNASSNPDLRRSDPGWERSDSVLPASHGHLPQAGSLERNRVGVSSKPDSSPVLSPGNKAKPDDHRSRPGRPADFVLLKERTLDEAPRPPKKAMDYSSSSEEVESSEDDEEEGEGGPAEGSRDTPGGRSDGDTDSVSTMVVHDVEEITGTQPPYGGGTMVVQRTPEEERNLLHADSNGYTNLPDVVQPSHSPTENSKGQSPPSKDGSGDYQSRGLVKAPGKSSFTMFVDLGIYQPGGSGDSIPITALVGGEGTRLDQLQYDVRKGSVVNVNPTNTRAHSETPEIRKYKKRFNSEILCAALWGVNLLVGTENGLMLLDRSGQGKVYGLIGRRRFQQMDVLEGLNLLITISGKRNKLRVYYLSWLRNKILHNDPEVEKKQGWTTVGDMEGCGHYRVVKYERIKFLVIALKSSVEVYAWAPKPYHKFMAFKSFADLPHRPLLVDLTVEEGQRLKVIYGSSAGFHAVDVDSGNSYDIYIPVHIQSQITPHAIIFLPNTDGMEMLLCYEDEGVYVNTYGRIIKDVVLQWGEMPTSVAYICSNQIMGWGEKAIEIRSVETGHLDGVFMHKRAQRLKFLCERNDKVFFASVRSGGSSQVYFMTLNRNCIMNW
UniProt Q05940, sequence (whole entry, looked up): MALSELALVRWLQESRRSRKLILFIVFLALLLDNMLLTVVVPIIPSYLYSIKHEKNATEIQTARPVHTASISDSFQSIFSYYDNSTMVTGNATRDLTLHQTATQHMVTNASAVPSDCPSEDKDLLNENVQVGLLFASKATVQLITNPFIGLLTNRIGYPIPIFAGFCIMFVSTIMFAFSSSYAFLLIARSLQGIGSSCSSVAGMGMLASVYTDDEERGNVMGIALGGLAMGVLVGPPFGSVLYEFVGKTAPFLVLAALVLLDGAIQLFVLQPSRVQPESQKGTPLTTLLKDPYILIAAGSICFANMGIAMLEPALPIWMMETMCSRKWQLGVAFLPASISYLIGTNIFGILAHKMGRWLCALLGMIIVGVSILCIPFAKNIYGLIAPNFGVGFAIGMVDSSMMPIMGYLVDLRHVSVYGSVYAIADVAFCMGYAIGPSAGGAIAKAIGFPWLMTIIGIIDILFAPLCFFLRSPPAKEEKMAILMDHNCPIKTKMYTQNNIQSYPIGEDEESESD
UniProt Q9BXA7, sequence (whole entry, looked up): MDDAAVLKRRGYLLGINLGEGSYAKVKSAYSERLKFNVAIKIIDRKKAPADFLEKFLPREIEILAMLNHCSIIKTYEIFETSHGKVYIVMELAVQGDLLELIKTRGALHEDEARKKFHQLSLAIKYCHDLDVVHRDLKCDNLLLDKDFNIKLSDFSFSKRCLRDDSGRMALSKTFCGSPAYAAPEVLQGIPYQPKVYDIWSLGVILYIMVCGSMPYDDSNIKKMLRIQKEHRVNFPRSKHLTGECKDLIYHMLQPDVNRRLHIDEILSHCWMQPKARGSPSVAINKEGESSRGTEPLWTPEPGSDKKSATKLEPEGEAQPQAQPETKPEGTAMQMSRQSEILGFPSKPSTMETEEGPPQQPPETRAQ

Set 1
SMILES: CN(c1ccnc(CNc2nc(Nc3ccc4c(c3)CC(=O)N4)ncc2C(F)(F)F)n1)S(C)(=O)=O
Read-out: cell-free assay
Technique: competition with immobilised ligand
Tested at: 1 µM
| target | remaining binding [%] |
| --- | --- |
| TSSK1B (Homo sapiens, UniProt Q9BXA7) | 56 |
| LCK (Homo sapiens, UniProt P06239) | 46 |
| MINK1 (Homo sapiens, UniProt Q8N4C8) | 53 |

Set 2
Organism: Plasmodium berghei
Mode: inhibitor
Cells: Huh-7
Strain: GFP-expressing, liver stage
Tested at: 10 µM
Time: 24 h
Reference: untreated control
| SMILES | infection rate |
| --- | --- |
| Cc1cc2cc3c(C)cc(=O)oc3c(C)c2o1 | 119% |
| O=C1N=C(O)NC1(c1ccccc1)c1ccccc1 | 90.4% |
| CS(=O)(=O)c1ccc(C2=C(c3ccccc3)C(=O)OC2)cc1 | 113% |
| O=C(O)c1cc(O)c2c(c1)[C@H]([C@H]1c3cc(C(=O)O)cc(O)c3C(=O)c3c(O[C@@H]4O[C@H](CO)[C@@H](O)[C@H](O)[C@H]4O)cccc31)c1cccc(O[C@@H]3O[C@H](CO)[C@@H](O)[C@H](O)[C@H]3O)c1C2=O | 81% |
| CC(=O)S[C@@H]1CC2=CC(=O)CC[C@]2(C)[C@H]2CC[C@@]3(C)[C@@H](CC[C@@]34CCC(=O)O4)[C@H]12 | 84.4% |
| NCCS(=O)(=O)O | 44.6% |

Set 3
Target: Calcium/calmodulin-dependent protein kinase kinase 1 (CAMKK1, Homo sapiens, UniProt Q8N5S9)
UniProt Q8N5S9, sequence (whole entry, looked up): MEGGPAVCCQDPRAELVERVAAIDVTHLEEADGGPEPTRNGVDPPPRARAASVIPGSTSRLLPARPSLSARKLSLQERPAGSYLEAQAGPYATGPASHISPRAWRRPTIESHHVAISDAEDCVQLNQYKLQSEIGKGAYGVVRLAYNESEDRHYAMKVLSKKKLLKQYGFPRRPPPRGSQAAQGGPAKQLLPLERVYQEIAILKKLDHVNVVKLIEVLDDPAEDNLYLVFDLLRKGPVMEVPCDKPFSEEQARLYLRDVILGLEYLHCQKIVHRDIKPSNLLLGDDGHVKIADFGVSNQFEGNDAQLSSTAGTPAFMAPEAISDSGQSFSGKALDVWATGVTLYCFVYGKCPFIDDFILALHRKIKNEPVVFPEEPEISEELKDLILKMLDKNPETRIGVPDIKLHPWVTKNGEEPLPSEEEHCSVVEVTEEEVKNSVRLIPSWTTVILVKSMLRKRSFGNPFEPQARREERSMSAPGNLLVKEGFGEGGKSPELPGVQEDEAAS
Read-out: enzyme activity
Mode: inhibitor
Tested at: 0.5 µM
Reference: control
| Structure (SMILES) | remaining activity [%] |
| --- | --- |
| Cc1cccc(-c2[nH]c(C(C)(C)C)nc2-c2ccc3c(c2)OCO3)n1 | 103 |
| C#Cc1cccc(Nc2ncnc3cc(OCCOC)c(OCCOC)cc23)c1 | 98.7 |
| O=C(Nc1cccc(Nc2cc(Nc3cccc(C(F)(F)F)c3)ncn2)c1)C1CC1 | 116 |
| O=C1NC(=O)C(c2cn(CCCO)c3ncccc23)=C1c1cnccn1 | 107 |
| O=c1c2ccccc2[nH]c(=S)n1CCN1CCC(=C(c2ccc(F)cc2)c2ccc(F)cc2)CC1 | 110 |
| COc1ccc(CNC(=O)Nc2ncc([N+](=O)[O-])s2)cc1 | 119 |
| O=C1NC(=O)C(c2cn(CCCn3ccnc3)c3ccccc23)=C1Nc1ccccc1 | 96.3 |
| CC(C)[C@H](CO)Nc1nc(Nc2cc(N)cc(Cl)c2)c2ncn(C(C)C)c2n1 | 86.8 |
| NCCNc1ncc(C(N)=O)c(Nc2cccc(C(F)(F)F)c2)n1 | 95.2 |
| Cn1sc(=O)n(Cc2ccccc2)c1=O | 114 |
| Cc1nc(-c2ccccc2)c(-c2ccncc2)o1 | 123 |
| Cc1ccc(NC(=O)c2ccc(CN3CCN(C)CC3)cc2)cc1Nc1nc(-c2cccnc2)cs1 | 97.6 |
| CCOC(=O)c1c(C)[nH]c(/C=C2\C(=O)Nc3ccccc32)c1C | 95.3 |
| Nc1[nH]nc2nc3ccccc3nc12 | 112 |

Set 4
Target: Beta-1 adrenergic receptor (ADRB1, Homo sapiens, UniProt P08588)
UniProt P08588, sequence (whole entry, looked up): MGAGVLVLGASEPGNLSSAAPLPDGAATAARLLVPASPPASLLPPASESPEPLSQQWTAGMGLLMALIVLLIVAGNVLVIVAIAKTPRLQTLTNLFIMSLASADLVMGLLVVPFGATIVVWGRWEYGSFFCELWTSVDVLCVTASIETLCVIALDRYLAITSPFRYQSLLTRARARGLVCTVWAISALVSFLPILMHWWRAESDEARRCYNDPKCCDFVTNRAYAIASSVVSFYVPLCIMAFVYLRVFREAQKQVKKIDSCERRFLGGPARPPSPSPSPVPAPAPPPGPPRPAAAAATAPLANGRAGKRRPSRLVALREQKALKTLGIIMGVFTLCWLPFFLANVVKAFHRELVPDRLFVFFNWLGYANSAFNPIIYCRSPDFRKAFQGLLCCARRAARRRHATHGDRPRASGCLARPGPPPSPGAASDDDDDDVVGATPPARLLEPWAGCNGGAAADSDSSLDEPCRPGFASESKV
Mode: antagonist
| SMILES | IC50 |
| --- | --- |
| COc1ccccc1N1CCN(C(=O)c2ccc(C)n2C)CC1 | ≥ 100 µM |
| CC(=O)Oc1ccc2c(c1)Oc1cc(OC(C)=O)ccc1C21OC(=O)c2ccccc21 | ≥ 100 µM |
| Cc1ccccc1-n1nc(-c2c(-c3ccc(F)cc3)nn3c2NC[C@@H](CO)C3)ccc1=O | ≥ 100 µM |

Single results of other studies
| SMILES | target or system | assay | system | setting | quantity | result |
| --- | --- | --- | --- | --- | --- | --- |
| N#Cc1ccc2[nH]cc(CCCCN3CCN(c4ccc5oc(C(N)=O)cc5c4)CC3)c2c1 | SLC18A2 (Homo sapiens, UniProt Q05940) | amine uptake, inhibitor | – | – | IC50 | 0.069 µM |
| CC(C)n1cnc(-c2ccc(F)cc2)c1-c1ncc(C(=O)Nc2ccc(N3CCN(C)CC3)cc2)[nH]1 | – | phase 2a clinical trial | patients with idiopathic pulmonary fibrosis | 60 mg once daily | patients with Appendicitis TEAE | 0% |

Some of these lines once more (set 3):
| Structure (SMILES) | remaining activity [%] |
| --- | --- |
| COc1ccc(CNC(=O)Nc2ncc([N+](=O)[O-])s2)cc1 | 119 |
| Cc1ccc(NC(=O)c2ccc(CN3CCN(C)CC3)cc2)cc1Nc1nc(-c2cccnc2)cs1 | 97.6 |
| Cc1nc(-c2ccccc2)c(-c2ccncc2)o1 | 123 |
